# Measured values from different studies.
# Numbers after ± are the reported error.
Molecule,cell line,assay,system,setting,how to read,quantity,result
PIAIIIA,"rat hippocampal neurons, AKAP150 RNAi, AKAP79 expression",FRAP,"peptide, dendritic spines","dose not given, 32 °C",,mobile fraction CN-YFP,81.3 ± 0.6%
CN(C)CCCNC(=O)/C=C/c1ccc2c(c1)OCO2,Raji,"TPA-induced EBV-EA expression, inhibitor",,"100-fold molar ratio to TPA, 48 h, together with: TPA 32 pmol/mL",reference: TPA control,EBV-EA positive cells,84.3 ± 2.6%
CC[C@H](C)[C@H](NC(=O)[C@@H]1CCCN1C(=O)[C@@H]1CCCN1)C(=O)N[C@@H](C)C(N)=O,PC-12,"Aβ42-induced neurotoxicity, inhibitor, MTT",,"concentration not given, 6 h, 37 °C, peptide to Aβ42 1:2, together with: Aβ42 2 µM",reference: untreated cells,viability,60.7%
Cc1ccc(NC(=S)NS(=O)(=O)c2cnc(N/N=C/c3ccccc3)[nH]c2=O)cc1,RAW264.7,"qPCR, refers to: CRP",,"concentration not given, compound at quarter of IC50, together with: LPS 1 µg/mL",reference: LPS control,mRNA level,0.211 ± 0.015 fold change
[Met(O)35]Aβ42,rat primary cortical neurons,LDH release,,"10 µM, 48 h",reference: medium control,viability decrease,17 ± 1%
CC[C@H](C)[C@H](NC(=O)[C@H](CCCCN)NC(=O)[C@@H](NC(=O)[C@H](CCC(N)=O)NC(=O)[C@H](CCCNC(=N)N)NC(=O)[C@@H](N)CC(=O)O)[C@@H](C)CC)C(=O)N[C@@H](Cc1c[nH]c2ccccc12)C(=O)N[C@@H](Cc1ccccc1)C(=O)N[C@@H](CCC(N)=O)C(=O)N[C@@H](CC(N)=O)C(=O)N[C@@H](CCCNC(=N)N)C(=O)N[C@@H](CCCNC(=N)N)C(=O)N[C@@H](CCSC)C(=O)N[C@@H](CCCCN)C(=O)N[C@@H](Cc1c[nH]c2ccccc12)C(=O)N[C@@H](CCCCN)C(=O)N[C@@H](CCCCN)C(=O)N[C@H](C(=O)N[C@@H](C)C(=O)N[C@@H](CC(C)C)C(=O)N[C@@H](CC(=O)O)C(=O)N[C@@H](Cc1c[nH]c2ccccc12)C(=O)N[C@@H](CO)C(=O)N[C@@H](Cc1c[nH]c2ccccc12)C(=O)N[C@@H](CC(C)C)C(=O)N[C@@H](CCC(N)=O)C(=O)N[C@H](C(=O)N[C@@H](CCC(=O)O)C(=O)O)[C@@H](C)O)[C@@H](C)O,rheumatoid arthritis synovial fibroblasts,"inhibitor, proximity ligation",,"concentration not given, 30 min, together with: IL-1β 1 ng/mL",,NEMO-IKK-2 interaction,inhibited
c1ccc(Nc2ccc3ccccc3c2)cc1,HepG2,Seahorse respirometry,,"concentration not given, 1 h, dosed at MMP IC50, together with: 1 µM FCCP",reference: basal,OCR,177.5 ± 1.62%
CC[C@H](C)[C@H](NC(=O)C(C)(C)NC(=O)[C@@H](N)C(C)C)C(=O)N[C@@H](C)C(N)=O,PC-12,"Aβ42-induced neurotoxicity, inhibitor, MTT",,"concentration not given, 6 h, 37 °C, peptide to Aβ42 1:2, together with: Aβ42 2 µM",reference: untreated cells,viability,93%
CC(C)(c1cc(Br)c(O)c(Br)c1)c1cc(Br)c(O)c(Br)c1,human iPSC-derived cardiomyocytes,beat peak frequency,,30 min,,lowest effective concentration,30 µM
COC[C@@H]([C@H](O)[C@H](O)C(=O)NCC[C@H](C)c1nc(/C=C/C[C@@H]2O[C@]3(C[C@@H](O)[C@@H]2C)O[C@H]([C@H](C[C@H](O)[C@H](C)[C@H](O)[C@H](C)/C=C(C)/C(C)=C/C=C/C(C)=C\C#N)OC)[C@H](OP(=O)(O)O)C3(C)C)co1)N(C)C,COS-7 overexpressing both,,,"concentration not given, 1 h",,Cables1 binding to 14-3-3γ,increased
CC1(C)C(C=C(Cl)Cl)C1C(=O)OCc1cccc(Oc2ccccc2)c1 (centres unmarked),human iPSC-derived cardiomyocytes,beat peak frequency,,30 min,,lowest effective concentration,3 µM
CC(C)C[C@H](NC(=O)[C@H](Cc1ccccc1)NC(=O)c1cnccn1)B(O)O,U-266,"cell growth or viability, flow cytometry",,2.5 nM,,viability,85%
amyloid beta-42 Met35-sulfone,rat primary cortical neurons,TUNEL,,"10 µM, 48 h",,apoptotic cells,19.7 ± 0.8%
COc1cc(F)ccc1-c1ncnc(Nc2cccc(C[S@](C)(=N)=O)c2)n1,J-Lat 10.6 cells,refers to: GFP-positive cells,,"10 µM, 21 days, spontaneous, after wash-out",reference: DMSO 0.1%,inhibition of latency reversal,96.5 ± 0.7%
C=C1C(=O)O[C@H]2[C@H]1CCC(C)=C1CC[C@@](C)(O)[C@@H]12,M9-ENL1 leukaemia cells,annexin V/7-AAD flow cytometry,,"24 h, 5% human plasma",,CC50,14.6 µM
C=C(C)[C@H]1Cc2c(ccc3c2O[C@@H]2COc4cc(OC)c(OC)cc4[C@@H]2C3=O)O1,human iPSC-derived cardiomyocytes,calcium flux,,"10 µM, 30 min",,inotropic effect,negative
C=CCN1CC[C@]23c4c5ccc(O)c4O[C@H]2C(=O)CC[C@@]3(O)[C@H]1C5,HEK293 expressing MOR,"morphine-induced cAMP overshoot, HTRF cAMP",,"1 µM, together with: NKH 477 25 nM",reference: morphine control,Emax,91%
O=C1C2CC=CCC2C(=O)N1SC(Cl)(Cl)Cl (centres unmarked),human iPSC-derived cardiomyocytes,beat peak frequency,,30 min,,lowest effective concentration,30 µM
CCCN(CCC)CCc1cccc2c1CC(=O)N2,HEK293 expressing MOR,"morphine-induced cAMP overshoot, HTRF cAMP",,"1 µM, together with: NKH 477 25 nM",reference: morphine control,Emax,92%
O=C(Nc1ccccc1)Nc1ccccc1,HepG2,Seahorse respirometry,,"concentration not given, 1 h, dosed at MMP IC50, together with: 1 µM FCCP",reference: basal,OCR,194 ± 2.21%
CC[C@H](C)[C@H](NC(=O)[C@@H](NC(=O)[C@@H](N)C(C)C)C(C)C)C(=O)N[C@H](C(N)=O)C(C)C,PC-12,"Aβ42-induced neurotoxicity, inhibitor, MTT",,"concentration not given, 6 h, 37 °C, peptide to Aβ42 1:2, together with: Aβ42 2 µM",reference: untreated cells,viability,75.4%
Nc1ccc(O)cc1,HepG2,,,"MMP IC50, 1 h, together with: FCCP 1 µM",reference: basal OCR,maximal OCR,226 ± 3.21%
CCCCCCCCCCCCCCCCCC(=O)NCC(COP(=O)([O-])OCC[N+](C)(C)C)OCC (racemic),HEK293 expressing MOR,"morphine-induced cAMP overshoot, HTRF cAMP",,"1 µM, together with: NKH 477 25 nM",reference: morphine control,Emax,101%
N=C(N)NCCC[C@H](NC(=O)CNC(=O)[C@@H](N)Cc1ccc(O)cc1)C(=O)N[C@@H](CCCCN)C(=O)N[C@@H](CCCCN)C(=O)N[C@@H](CCCNC(=N)N)C(=O)N[C@@H](CCCNC(=N)N)C(=O)N[C@@H](CCC(N)=O)C(=O)N[C@@H](CCCNC(=N)N)C(=O)N[C@@H](CCCNC(=N)N)C(=O)N[C@@H](CCCNC(=N)N)C(=O)N[C@@H](CCCNC(=N)N)C(=O)N[C@@H](CC(N)=O)C(=O)N[C@@H](CCC(N)=O)C(=O)N[C@@H](CCCCN)C(=O)N[C@@H](Cc1ccccc1)C(=O)N[C@@H](CCCCN)C(=O)N[C@@H](CS)C(=O)NCC(=O)N[C@@H](CCC(=O)O)C(=O)O,MCF7 transfected Flag-JMJD6 His-BRD4,immunoprecipitation,,"10 µM, 12 h",,BRD4-JMJD6 interaction,inhibited
C[C@@H](CO)CCC[C@@H](C)[C@H]1CC[C@H]2[C@@H]3CC=C4C[C@@H](O)CC[C@]4(C)[C@H]3CC[C@]12C,THP-1,bioresmethrin hydrolysis,,"1 µM, 60 min pretreatment, together with: bioresmethrin 50 µM",,inhibition,77 ± 9%
CC[C@H](C)[C@H](NC(=O)[C@@H](NC(=O)[C@@H](N)C(C)C)C(C)C)C(=O)NC(C)(C)C(N)=O,PC-12,"Aβ42-induced neurotoxicity, inhibitor, MTT",,"concentration not given, 6 h, 37 °C, peptide to Aβ42 1:2, together with: Aβ42 2 µM",reference: untreated cells,viability,100%
CC(C)c1ccc2c(c1)CC[C@H]1[C@](C)(CN)CCC[C@]21C,UACC-903,"cell growth or viability, MTS",,48 h,,IC50,1.19 µM
CC(C)Oc1cccc(CC(=O)N2CCC[C@@](CC[N+]34CCC(c5ccccc5)(CC3)CC4)(c3ccc(Cl)c(Cl)c3)C2)c1.[Cl-],HEK293 expressing NK1R,"cytosolic ERK, antagonist, FRET biosensor",,"concentration not given, 30 min, together with: substance P",,ERK activity,inhibited
Oc1ccc(Cl)cc1Sc1cc(Cl)ccc1O,HepG2,Seahorse respirometry,,"concentration not given, 1 h, dosed at MMP IC50, together with: 1 µM FCCP",reference: basal,OCR,230.1 ± 2.17%
CCC(=O)c1ccc2c(c1)N(CCCN(C)C)c1ccccc1S2,HEK293 expressing MOR,"morphine-induced cAMP overshoot, HTRF cAMP",,"1 µM, together with: NKH 477 25 nM",reference: morphine control,Emax,41%
Clc1ccc(C(c2ccccc2Cl)C(Cl)Cl)cc1 (centres unmarked),HepG2,Seahorse respirometry,,"concentration not given, 1 h, dosed at MMP IC50, together with: 1 µM FCCP",reference: basal,OCR,201 ± 3.25%
C[C@H]1C[C@H]2[C@@H]3CCC4=CC(=O)C=C[C@]4(C)[C@@]3(Cl)[C@@H](O)C[C@]2(C)[C@@]1(O)C(=O)CO,A549 EGFR reporter cells,EGFR-induced granule formation,,"10 µM, together with: 500 nM EGF",negative means activation,inhibition,-116%
O=P1(N(CCCl)CCCl)NCCCO1 (centres unmarked),U-87 MG,"cell growth or viability, WST-1",,"500 µM, 48 h",,viability,67.8%
CC1(C)[C@H](C(=O)O[C@H](C#N)c2cccc(Oc3ccccc3)c2)[C@@H]1C=C(Br)Br,human iPSC-derived cardiomyocytes,beat peak frequency,,30 min,,lowest effective concentration,3 µM
C=CCN1CC[C@]23CCCC[C@H]2[C@H]1Cc1ccc(O)cc13,HEK293 expressing MOR,"morphine-induced cAMP overshoot, HTRF cAMP",,"1 µM, together with: NKH 477 25 nM",reference: morphine control,Emax,70%
CN(C)c1cc2c(Nc3ccc4c(cnn4Cc4ccccc4)c3)ncnc2cn1,A549 EGFR reporter cells,EGFR-induced granule formation,,"10 µM, together with: 500 nM EGF",negative means activation,inhibition,89%
C/C=C1\NC(=O)[C@@H](NC(=O)[C@H](CCC(N)=O)NC(=O)CCCCC)[C@@H](C)OC(=O)[C@H](C(C)C)NC(=O)[C@H](Cc2ccc(O)cc2)N(C)C(=O)[C@H](Cc2ccccc2)N2C(=O)[C@H](CC[C@H]2O)NC1=O,BEAS-2B,"IL1B mRNA induction, inhibitor, RT-qPCR, refers to: IL1B mRNA",,"3 h, together with: 100 nM neutrophil elastase",,concentration at maximal effect,1 µM
C=C1[C@@H](C)[C@H]2[C@H](Cc3ccccc3)NC(=O)[C@]23[C@H](OC(C)=O)/C=C/[C@@](C)(O)C(=O)[C@@H](C)C/C=C/[C@H]3[C@@H]1O,K562 cells,micropipette aspiration,,"10 µM, 20 min, 37 °C",,aspiration pressure,6 ± 4 pN/µm²
O=C1C2CC=CCC2C(=O)N1SC(Cl)(Cl)Cl (centres unmarked),HepG2,Seahorse respirometry,,"concentration not given, 1 h, dosed at MMP IC50, together with: 1 µM FCCP",reference: basal,OCR,62.2 ± 0.91%
O=c1cc(-c2ccccc2)oc2cc(O)cc(O)c12,J-Lat 10.6 cells,refers to: GFP-positive cells,,"10 µM, 21 days, spontaneous, after wash-out",reference: DMSO 0.1%,inhibition of latency reversal,87.8 ± 9.1%
CC(Oc1cc(C(F)(F)F)cc(C(F)(F)F)c1)C1CC(=O)CC(=O)C1 (centres unmarked),rat primary cortical neurons,viability,,"up to 100 µM, together with: MG132 100 nM",,neuroprotection,positive

# Excerpt of the above:
Molecule,cell line,assay,system,setting,how to read,quantity,result
CC1(C)[C@H](C(=O)O[C@H](C#N)c2cccc(Oc3ccccc3)c2)[C@@H]1C=C(Br)Br,human iPSC-derived cardiomyocytes,beat peak frequency,,30 min,,lowest effective concentration,3 µM
CC1(C)C(C=C(Cl)Cl)C1C(=O)OCc1cccc(Oc2ccccc2)c1 (centres unmarked),human iPSC-derived cardiomyocytes,beat peak frequency,,30 min,,lowest effective concentration,3 µM
